Published values gathered from unrelated publications.
A part holds a random share of what one study measured.

Sample 1
Target: Interferon regulatory factor 5, full length, phosphomimetic (IRF5, Homo sapiens, UniProt Q13568-2, residues 1-514, K96S/S451D/S453D/S456D/S462D)
Method: protein-binding microarray
Molecule type: double-stranded DNA, one strand shown
Matrix: in vitro
Tested at: 250 nM
Notes: 60-bp whole probe
Together with: salmon DNA 0.4 mg/ml
Reference: random background probes
Reading: higher = stronger binding
With `GCCTAGCACGACGGTTTCCCTATCCTGACGTGCTAGGTCTTGATTCGCTTGACGCTGCTG` the log fluorescence was 0.643 z-score.
`GCCTAGCACTTAGGACTGGACGTTCGGTTAGTGCTAGTCTTGATTCGCTTGACGCTGCTG` has a log fluorescence of -0.177 z-score.
For `GCCTAGCACGACGGACTGCTACCGCTGACGTGCTAGGTCTTGATTCGCTTGACGCTGCTG`, the log fluorescence was -0.556 z-score.

Sample 2
Target: Sal-like protein 4, full length isoform B (SALL4, Homo sapiens, UniProt Q9UJQ4-2, residues 1-616)
Method: universal PBM
Molecule type: double-stranded DNA, one strand shown
Matrix: in vitro
Tested at: not given
Notes: 8-mer, flanks averaged, mean of replicates
Reading: higher = stronger binding
Construct (chain): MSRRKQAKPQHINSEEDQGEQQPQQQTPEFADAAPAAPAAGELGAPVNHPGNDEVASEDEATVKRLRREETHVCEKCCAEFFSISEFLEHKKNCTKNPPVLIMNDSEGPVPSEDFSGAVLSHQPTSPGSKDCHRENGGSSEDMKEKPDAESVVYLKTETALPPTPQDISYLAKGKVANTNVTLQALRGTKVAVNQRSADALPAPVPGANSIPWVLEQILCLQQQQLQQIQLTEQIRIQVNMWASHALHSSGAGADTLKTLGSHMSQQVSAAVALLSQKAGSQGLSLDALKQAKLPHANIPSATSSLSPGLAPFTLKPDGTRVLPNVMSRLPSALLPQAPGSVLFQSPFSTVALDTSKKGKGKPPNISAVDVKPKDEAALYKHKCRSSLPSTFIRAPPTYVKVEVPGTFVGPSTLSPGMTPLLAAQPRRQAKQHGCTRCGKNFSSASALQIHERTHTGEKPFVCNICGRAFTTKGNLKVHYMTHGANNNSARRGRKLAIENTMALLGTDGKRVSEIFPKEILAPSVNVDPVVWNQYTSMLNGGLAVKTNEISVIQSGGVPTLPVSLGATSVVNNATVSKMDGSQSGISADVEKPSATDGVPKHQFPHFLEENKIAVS
For `TGGGCGAA`, the E-score was -0.064.
The E-score of `CACGGACG` is reported as -0.0899.
`GAAGTACA` gave an E-score of 0.0529.
The E-score of `TCAGCGAA` is reported as -0.0815.

Sample 3
Target: Phosphate system positive regulatory protein PHO4, full length, GST-tagged (PHO4, Saccharomyces cerevisiae, UniProt P07270, residues 1-312)
Method: competition protein-binding microarray
Molecule type: double-stranded DNA, one strand shown
Matrix: in vitro
Tested at: 2 µM
Notes: whole 60-bp probe, lowest competitor level
Together with: Cbf1 competitor, 0.05 µM
Reading: higher = stronger binding
Target sequence (chain): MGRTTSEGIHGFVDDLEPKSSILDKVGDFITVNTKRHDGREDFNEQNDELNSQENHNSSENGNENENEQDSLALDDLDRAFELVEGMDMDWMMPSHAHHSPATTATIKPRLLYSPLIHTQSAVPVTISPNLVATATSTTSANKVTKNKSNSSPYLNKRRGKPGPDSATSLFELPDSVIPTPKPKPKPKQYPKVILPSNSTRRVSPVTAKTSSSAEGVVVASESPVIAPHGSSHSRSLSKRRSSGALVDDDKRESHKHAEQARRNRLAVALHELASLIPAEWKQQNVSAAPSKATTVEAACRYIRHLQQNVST
The fluorescence intensity of `GTCTTGTCTCATTGTTGGGTGGGTGTCCCCACTTCAGTCTTGATTCGCTTGACGCTGCTG` is reported as 5620 a.u.
The fluorescence intensity of `CATGCTGTAGCTATCGTCGTGATGGCTTTTACTGGCGTCTTGATTCGCTTGACGCTGCTG` is reported as 5110 a.u.
`CCGGTATCTTTCCAAATCGTGCCGATGCTTGGAACCGTCTTGATTCGCTTGACGCTGCTG` gave a fluorescence intensity of 7170 a.u.
With `CGCGATTATGGGCCGCTCGTGACGGTAAAGGAAGCAGTCTTGATTCGCTTGACGCTGCTG` the fluorescence intensity was 6100 a.u.

Single results of other studies
`PhoQ, residues 284 288 289 292 302 303 AGGCYF` gave a fold induction of 4.78 (PhoP, residues 12 14 15 18 19 GQAIL (Escherichia coli, UniProt P23836); Sort-seq, item: YFP reporter; E. coli; PhoQ-PhoP variant library, together with: 10 µM Mg2+; reference: high Mg2+ state, higher = stronger signaling).

For quick reference, copied from above (sample 1):
For `GCCTAGCACGACGGACTGCTACCGCTGACGTGCTAGGTCTTGATTCGCTTGACGCTGCTG`, the log fluorescence was -0.556 z-score.
